Published values gathered from unrelated publications.
Protocols differ between the studies behind these lines. ± gives the spread as reported.

SMILES | test | system | setting | tissue uptake [%ID/g]
CCCC[C@H](NC(=O)CN1CCC(NC(=O)CN2CCN(CC(=O)O)CCN(CC(=O)O)CCN(CC(=O)O)CC2)CC1)C(=O)N[C@H]1CC(=O)NCCCC[C@@H](C(N)=O)NC(=O)[C@H](Cc2c[nH]c3ccccc23)NC(=O)[C@H](CCCNC(=N)N)NC(=O)[C@@H](Cc2ccccc2)NC(=O)[C@H](Cc2c[nH]cn2)NC1=O [gallium-68 labelled] |  | male C57BL/6J mice, B16-F10 tumours, bone | intravenous, 1 h, blocking study, with: 100 µg non-radioactive Ga-peptide | 1.1 ± 0.5
O=C([O-])c1cccc(CN(CCN(Cc2cn(Cc3ccccc3)nn2)Cc2cccc(C(=O)[O-])n2)Cc2cn(Cc3ccccc3)nn2)n1.[64Cu+2] |  | healthy athymic nude mice, blood | intravenous, 15 min | 1.72
N=C(N)NCCC[C@H](NC(=O)[C@@H]1CSSC[C@H](NC(=O)[C@H](Cc2ccc3ccccc3c2)NC(=O)[C@H](CCCNC(=N)N)NC(=O)[C@H](CCCNC(=N)N)NC(=S)Nc2ccc(C[C@H]3CN(CC(=O)O)CCN(CC(=O)O)CCN3CC(=O)O)cc2)C(=O)N[C@@H](Cc2ccc(O)cc2)C(=O)N[C@@H](CCCNC(N)=O)C(=O)N[C@@H](CCCCN)C(=O)N[C@H](CCCCN)C(=O)N2CCC[C@H]2C(=O)N[C@@H](Cc2ccc(O)cc2)C(=O)N[C@@H](CCCNC(=N)N)C(=O)N[C@@H](CCCNC(N)=O)C(=O)N1)C(N)=O [copper-64 labelled] | PET | tumour-bearing mice, kidney | 100 µCi, 24 h | 15.6 ± 2.16
CC(C)[C@H](NC(=O)[C@@H]1CCCN1C(=O)[C@H](CCCNC(=N)N)NC(=O)[C@H](CS)NC(=O)[C@H](Cc1c[nH]c2ccccc12)NC(=O)[C@H](CCCNC(=N)N)NC(=O)[C@@H](Cc1ccccc1)NC(=O)[C@H](Cc1c[nH]cn1)NC(=O)[C@H](CCC(=O)O)NC(=O)[C@H](CS)NC(=O)[C@H](CS)NC(=O)COCCOCCNC(=O)[C@@H]1CC(=O)N[C@@H](CCCNC(=N)N)C(=O)NCC(=O)N[C@@H](CC(=O)O)C(=O)N[C@H](Cc2ccc(O)cc2)C(=O)N1)C(N)=O [technetium-99m labelled] |  | nude mice, M21 melanoma xenograft, kidney | intravenous, 0.037 MBq, 2 h | 22 ± 9.89
CC(F)C(=O)NCCOCCOCCOCC(=O)N[C@@H](CCC(=O)NCCCC[C@@H]1NC(=O)[C@@H](Cc2ccc(O)cc2)NC(=O)[C@H](CC(=O)O)NC(=O)CNC(=O)[C@H](CCCNC(=N)N)NC1=O)C(=O)NCCCC[C@@H]1NC(=O)[C@@H](Cc2ccc(O)cc2)NC(=O)[C@H](CC(=O)O)NC(=O)CNC(=O)[C@H](CCCNC(=N)N)NC1=O (stereo partly drawn) [fluorine-18 labelled] | small-animal PET | female athymic nude mice, U-87 MG xenograft, liver | intravenous, 3.7 MBq, 120 min | 0.28 ± 0.08
O=C([O-])CN1CCN(CC(=O)[O-])CCN(CC(=O)NC[C@H]2CC[C@H](C(=O)N[C@H](Cc3cnc4ccccc4c3)C(=O)NCCCC[C@H](NC(=O)N[C@@H](CCC(=O)O)C(=O)O)C(=O)O)CC2)CCN(CC(=O)[O-])CC1.[64Cu+2] | ex vivo gamma counting | 22Rv1 tumour-bearing mice, liver | intravenous, 0.74 MBq, 1 h | 19.2 ± 2.95
N=C(N)NCCC[C@H](NC(=O)CON=C[C@H](F)[C@@H](O)[C@H](O)[C@H](O)CO)C(=O)NCC(=O)N[C@@H](CC(=O)O)C(=O)O [fluorine-18 labelled] |  | nude mice U-87 MG tumour, intestine | intravenous, 2 h | 0.19 ± 0.09
N=C(N)NCCC[C@@H]1NC(=O)[C@H](CCCCNC(=O)CC[C@H](NC(=O)[C@H]2O[C@@H](CNC(=O)c3ccc(F)cc3)[C@H](O)[C@@H](O)[C@H]2O)C(=O)NCCCC[C@@H]2NC(=O)[C@@H](Cc3ccc(O)cc3)NC(=O)[C@H](CC(=O)O)NC(=O)CNC(=O)[C@H](CCCNC(=N)N)NC2=O)NC(=O)[C@@H](Cc2ccc(O)cc2)NC(=O)[C@H](CC(=O)O)NC(=O)CNC1=O [fluorine-18 labelled] | small-animal PET | female athymic nude mice, U-87 MG xenograft, liver | intravenous, 3.7 MBq, 120 min | 0.28 ± 0.1
CCCC[C@@H]1NC(=O)[C@@H](NC(=O)[C@H](CCC(=O)O)NC(=O)CNC(=O)CN2CCN(CC(=O)O)CCN(CC(=O)O)CCN(CC(=O)O)CC2)CCCCNC(=O)C[C@@H](C(N)=O)NC(=O)[C@H](C(C)C)NC(=O)[C@@H]2CCCN2C(=O)[C@H](CCCNC(=N)N)NC(=O)CNC(=O)[C@H](Cc2c[nH]c3ccccc23)NC(=O)[C@H](CCCNC(=N)N)NC(=O)[C@@H](Cc2ccccc2)NC(=O)[C@H](Cc2c[nH]cn2)NC(=O)[C@H](CCC(=O)O)NC1=O [gallium-67 labelled] |  | C57 mice, B16/F10 lung metastases, brain | intravenous, 0.037 MBq/mouse, 4 h | 0.01 ± 0.01
CC(C)CC(CC(C)C)NC(=O)[C@H](Cc1cnc[nH]1)NC(=O)CNC(=O)[C@@H](NC(=O)[C@H](C)NC(=O)[C@H](Cc1c[nH]c2ccccc12)NC(=O)[C@H](CCC(N)=O)NC(=O)[C@@H](Cc1ccccc1)NC(=O)COCC(=O)Nc1ccc(CNC(=O)CN2CCN(CC(=O)O)CCN(CC(=O)O)CCN(CC(=O)O)CC2)cc1)C(C)C [gallium-68 labelled] |  | male NRG mice, PC-3 xenograft, tumour | intravenous, 120 min | 12.1 ± 3.72
CN1C(=O)[C@@H](Cc2ccc(O)c(I)c2)NC(=O)CNC(=O)[C@H](Cc2ccc3ccccc3c2)NC(=O)[C@H](CCCNC(=N)N)NC(=O)[C@H]1CCCNC(=O)c1ccc(CNC(=O)CN2CCN(CC(=O)O)CCN(CC(=O)O)CCN(CC(=O)O)CC2)cc1 [lutetium-177 labelled] | refers to: 177Lu radioactivity | female CB-17 SCID mice, Daudi xenograft, liver | intravenous, 0.16 nmol per mouse, 1 h | 10.3 ± 0.8
NC12CNCCNCC(NCc3ccc(CNC(=O)CCCC(=O)NCc4ccc(-c5nncnn5)cc4)cc3)(CNCCNC1)CNCCNC2.[64Cu+2] |  | athymic nude mice SW1222 xenograft, heart | 12 h post injection, 24 h accumulation interval, with: huA33-TCO pretargeting | 0.84 ± 0.1
CC(C)[C@H](NC(=O)[C@@H]1CCCN1C(=O)[C@H](CCCNC(=N)N)NC(=O)[C@H](CS)NC(=O)[C@H](Cc1c[nH]c2ccccc12)NC(=O)[C@H](CCCNC(=N)N)NC(=O)[C@@H](Cc1ccccc1)NC(=O)[C@H](Cc1c[nH]cn1)NC(=O)[C@H](CCC(=O)O)NC(=O)[C@H](CS)NC(=O)[C@H](CS)NC(=O)[C@@H]1CC(=O)N[C@@H](CCCNC(=N)N)C(=O)NCC(=O)N[C@@H](CC(=O)O)C(=O)N[C@H](Cc2ccc(O)cc2)C(=O)N1)C(N)=O [technetium-99m labelled] |  | C57 mice B16/F1 melanoma female, bone | iv, 2 h, with: NDP-MSH 10 µg co-injected | 0.59 ± 0.2
O=C([O-])CN1CCN(CC(=O)[O-])CCN(CC(=O)[O-])CCN(CC(=O)[O-])CC1.[64Cu+2] |  | healthy athymic nude mice, small intestine | intravenous, 24 h | 0.44
CC(F)C(=O)NC[C@@H]1O[C@H](C(=O)NCCCC[C@@H]2NC(=O)[C@@H](Cc3ccccc3)NC(=O)[C@H](CC(=O)O)NC(=O)CNC(=O)[C@H](CCCNC(=N)N)NC2=O)[C@H](O)[C@H](O)[C@H]1O (stereo partly drawn) [fluorine-18 labelled] | small-animal PET | female athymic nude mice, U-87 MG xenograft, muscle | intravenous, 3.7 MBq, 60 min | 0.1 ± 0.01
CCCC[C@H](NC(=O)CNC(=O)CNC(=O)CN1CCN(CC(=O)O)CCN(CC(=O)O)CC1)C(=O)N[C@H]1CC(=O)NCCCC[C@@H](C(N)=O)NC(=O)[C@H](Cc2c[nH]c3ccccc23)NC(=O)[C@H](CCCNC(=N)N)NC(=O)[C@@H](Cc2ccccc2)NC(=O)[C@H](Cc2c[nH]cn2)NC1=O [gallium-67 labelled] |  | female C57 mice, B16/F1 melanoma, tumor | intravenous, 0.037 MBq, 24 h | 7.95 ± 2.58
N=C(N)NCCC[C@H](NC(=O)[C@@H]1CSSC[C@H](NC(=O)[C@H](Cc2ccc3ccccc3c2)NC(=O)[C@H](CCCNC(=N)N)NC(=O)[C@H](CCCNC(=N)N)NC(=O)CN2CCN(CC(=O)O)CCN(CC(=O)O)CCN(CC(=O)O)CC2)C(=O)N[C@@H](Cc2ccc(O)cc2)C(=O)N[C@@H](CCCNC(N)=O)C(=O)N[C@@H](CCCCN)C(=O)N[C@H](CCCCN)C(=O)N2CCC[C@H]2C(=O)N[C@@H](Cc2ccc(O)cc2)C(=O)N[C@@H](CCCNC(=N)N)C(=O)N[C@@H](CCCNC(N)=O)C(=O)N1)C(N)=O [copper-64 labelled] |  | female athymic nude mice, CHO-CXCR4 tumour xenograft | intravenous, 50 µCi, 4 h | 4.98 ± 0.89
CC(F)C(=O)NC[C@@H]1O[C@H](C(=O)NCCCC[C@@H]2NC(=O)[C@@H](Cc3ccc(O)cc3)NC(=O)[C@H](CC(=O)O)NC(=O)CNC(=O)[C@H](CCCNC(=N)N)NC2=O)[C@H](O)[C@H](O)[C@H]1O (stereo partly drawn) [fluorine-18 labelled] | small-animal PET | female athymic nude mice, U-87 MG xenograft, kidney | intravenous, 3.7 MBq, 120 min | 0.82 ± 0.13

A few entries again:
SMILES | test | system | setting | tissue uptake [%ID/g]
CC(C)[C@H](NC(=O)[C@@H]1CCCN1C(=O)[C@H](CCCNC(=N)N)NC(=O)[C@H](CS)NC(=O)[C@H](Cc1c[nH]c2ccccc12)NC(=O)[C@H](CCCNC(=N)N)NC(=O)[C@@H](Cc1ccccc1)NC(=O)[C@H](Cc1c[nH]cn1)NC(=O)[C@H](CCC(=O)O)NC(=O)[C@H](CS)NC(=O)[C@H](CS)NC(=O)[C@@H]1CC(=O)N[C@@H](CCCNC(=N)N)C(=O)NCC(=O)N[C@@H](CC(=O)O)C(=O)N[C@H](Cc2ccc(O)cc2)C(=O)N1)C(N)=O [technetium-99m labelled] |  | C57 mice B16/F1 melanoma female, bone | iv, 2 h, with: NDP-MSH 10 µg co-injected | 0.59 ± 0.2
O=C([O-])CN1CCN(CC(=O)[O-])CCN(CC(=O)[O-])CCN(CC(=O)[O-])CC1.[64Cu+2] |  | healthy athymic nude mice, small intestine | intravenous, 24 h | 0.44
CC(F)C(=O)NC[C@@H]1O[C@H](C(=O)NCCCC[C@@H]2NC(=O)[C@@H](Cc3ccccc3)NC(=O)[C@H](CC(=O)O)NC(=O)CNC(=O)[C@H](CCCNC(=N)N)NC2=O)[C@H](O)[C@H](O)[C@H]1O (stereo partly drawn) [fluorine-18 labelled] | small-animal PET | female athymic nude mice, U-87 MG xenograft, muscle | intravenous, 3.7 MBq, 60 min | 0.1 ± 0.01
